Published values gathered from unrelated publications.
Each line is one published result; not all experiments were run side by side. “And” joins repeats or separate records; there may be more than shown. ± gives the spread as reported.
CYP2D6: Cytochrome P450 2D6 (CYP2D6, Homo sapiens, UniProt P10635)
Sequence of UniProt P10635 (whole entry, looked up): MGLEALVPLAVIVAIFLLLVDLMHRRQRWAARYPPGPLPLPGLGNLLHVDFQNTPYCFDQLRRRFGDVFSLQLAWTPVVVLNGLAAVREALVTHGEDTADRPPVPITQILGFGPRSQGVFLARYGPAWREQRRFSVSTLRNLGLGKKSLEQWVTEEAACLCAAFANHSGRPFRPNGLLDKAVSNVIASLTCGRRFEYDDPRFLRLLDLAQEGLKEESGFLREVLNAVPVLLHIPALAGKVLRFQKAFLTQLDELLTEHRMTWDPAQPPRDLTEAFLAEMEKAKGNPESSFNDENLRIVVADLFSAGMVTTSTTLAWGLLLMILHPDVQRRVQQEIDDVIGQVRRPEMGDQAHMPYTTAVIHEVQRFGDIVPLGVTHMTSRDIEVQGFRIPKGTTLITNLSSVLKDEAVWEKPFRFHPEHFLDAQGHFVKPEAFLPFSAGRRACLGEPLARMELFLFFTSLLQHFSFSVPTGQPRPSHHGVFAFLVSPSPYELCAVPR
CYP1A2: Cytochrome P450 1A2 (CYP1A2, Homo sapiens, UniProt P05177)
Sequence of UniProt P05177 (whole entry, looked up): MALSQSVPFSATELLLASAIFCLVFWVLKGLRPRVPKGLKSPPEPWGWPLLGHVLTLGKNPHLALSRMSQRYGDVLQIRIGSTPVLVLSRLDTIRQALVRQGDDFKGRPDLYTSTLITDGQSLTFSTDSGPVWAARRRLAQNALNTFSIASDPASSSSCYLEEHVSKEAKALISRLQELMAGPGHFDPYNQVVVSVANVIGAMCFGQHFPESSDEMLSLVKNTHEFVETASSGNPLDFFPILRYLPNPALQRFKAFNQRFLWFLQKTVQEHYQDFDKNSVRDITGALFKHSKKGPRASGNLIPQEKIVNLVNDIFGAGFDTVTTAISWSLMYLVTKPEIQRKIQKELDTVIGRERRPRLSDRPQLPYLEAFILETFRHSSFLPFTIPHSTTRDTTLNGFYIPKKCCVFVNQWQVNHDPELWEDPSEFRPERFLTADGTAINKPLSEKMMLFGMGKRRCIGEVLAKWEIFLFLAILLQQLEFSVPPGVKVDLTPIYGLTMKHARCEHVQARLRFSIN
Sequence of UniProt P10632 (whole entry, looked up): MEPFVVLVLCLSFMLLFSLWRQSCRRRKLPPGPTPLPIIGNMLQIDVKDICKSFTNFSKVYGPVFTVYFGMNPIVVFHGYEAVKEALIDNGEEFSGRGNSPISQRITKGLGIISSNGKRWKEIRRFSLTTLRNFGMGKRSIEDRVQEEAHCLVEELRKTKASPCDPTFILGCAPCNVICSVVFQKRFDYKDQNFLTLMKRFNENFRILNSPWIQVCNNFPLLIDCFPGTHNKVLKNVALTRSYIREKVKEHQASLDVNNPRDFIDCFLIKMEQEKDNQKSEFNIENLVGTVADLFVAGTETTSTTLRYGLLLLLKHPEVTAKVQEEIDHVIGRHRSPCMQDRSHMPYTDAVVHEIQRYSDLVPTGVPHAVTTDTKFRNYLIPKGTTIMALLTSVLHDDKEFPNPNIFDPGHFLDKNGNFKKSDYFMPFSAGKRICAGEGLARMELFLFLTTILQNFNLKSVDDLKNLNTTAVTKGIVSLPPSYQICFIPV
Sequence of UniProt Q96JM7 (whole entry, looked up): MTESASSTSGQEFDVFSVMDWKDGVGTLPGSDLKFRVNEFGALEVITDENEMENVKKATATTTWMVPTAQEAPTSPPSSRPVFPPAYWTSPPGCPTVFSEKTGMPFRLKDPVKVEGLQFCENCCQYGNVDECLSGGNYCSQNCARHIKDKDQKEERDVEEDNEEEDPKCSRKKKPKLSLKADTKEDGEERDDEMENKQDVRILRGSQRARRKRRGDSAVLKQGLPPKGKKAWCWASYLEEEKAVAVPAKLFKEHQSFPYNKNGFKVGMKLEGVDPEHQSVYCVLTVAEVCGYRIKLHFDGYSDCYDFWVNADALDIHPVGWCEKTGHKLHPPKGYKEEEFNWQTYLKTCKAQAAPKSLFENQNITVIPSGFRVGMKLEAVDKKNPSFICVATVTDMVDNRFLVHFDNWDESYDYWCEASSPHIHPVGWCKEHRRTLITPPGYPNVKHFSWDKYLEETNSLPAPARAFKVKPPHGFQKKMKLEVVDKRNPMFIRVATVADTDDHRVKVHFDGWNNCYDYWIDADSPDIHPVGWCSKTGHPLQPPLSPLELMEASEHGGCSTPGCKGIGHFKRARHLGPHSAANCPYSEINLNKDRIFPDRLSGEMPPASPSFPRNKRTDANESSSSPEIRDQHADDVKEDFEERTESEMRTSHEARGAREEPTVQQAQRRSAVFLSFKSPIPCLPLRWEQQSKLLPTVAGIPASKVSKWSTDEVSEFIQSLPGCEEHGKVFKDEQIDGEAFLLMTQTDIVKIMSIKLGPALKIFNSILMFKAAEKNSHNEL
Sequence of UniProt P51589 (whole entry, looked up): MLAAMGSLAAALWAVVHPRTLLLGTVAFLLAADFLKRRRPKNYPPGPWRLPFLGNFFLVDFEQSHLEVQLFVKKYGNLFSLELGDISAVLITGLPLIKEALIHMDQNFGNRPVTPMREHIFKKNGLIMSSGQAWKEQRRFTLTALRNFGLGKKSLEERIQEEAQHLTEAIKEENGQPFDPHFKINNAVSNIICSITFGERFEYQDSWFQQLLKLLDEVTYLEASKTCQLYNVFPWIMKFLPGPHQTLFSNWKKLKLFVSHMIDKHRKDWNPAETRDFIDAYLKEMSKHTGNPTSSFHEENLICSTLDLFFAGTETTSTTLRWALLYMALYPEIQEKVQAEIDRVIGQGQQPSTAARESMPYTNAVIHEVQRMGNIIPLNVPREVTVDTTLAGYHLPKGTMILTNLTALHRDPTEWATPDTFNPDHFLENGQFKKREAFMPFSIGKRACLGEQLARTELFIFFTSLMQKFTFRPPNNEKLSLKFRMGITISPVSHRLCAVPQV
Sequence of UniProt P56658 (whole entry, looked up): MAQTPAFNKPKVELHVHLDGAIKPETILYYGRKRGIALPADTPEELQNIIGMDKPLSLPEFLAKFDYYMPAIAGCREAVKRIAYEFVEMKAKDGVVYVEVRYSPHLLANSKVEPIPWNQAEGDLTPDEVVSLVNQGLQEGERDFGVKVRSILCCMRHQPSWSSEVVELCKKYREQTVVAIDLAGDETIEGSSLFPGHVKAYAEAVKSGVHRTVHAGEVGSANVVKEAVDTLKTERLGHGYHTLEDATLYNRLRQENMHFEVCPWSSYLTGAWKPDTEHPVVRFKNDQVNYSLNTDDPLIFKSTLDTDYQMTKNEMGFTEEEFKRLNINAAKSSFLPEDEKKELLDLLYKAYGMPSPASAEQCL
Sequence of UniProt P10636 (whole entry, looked up): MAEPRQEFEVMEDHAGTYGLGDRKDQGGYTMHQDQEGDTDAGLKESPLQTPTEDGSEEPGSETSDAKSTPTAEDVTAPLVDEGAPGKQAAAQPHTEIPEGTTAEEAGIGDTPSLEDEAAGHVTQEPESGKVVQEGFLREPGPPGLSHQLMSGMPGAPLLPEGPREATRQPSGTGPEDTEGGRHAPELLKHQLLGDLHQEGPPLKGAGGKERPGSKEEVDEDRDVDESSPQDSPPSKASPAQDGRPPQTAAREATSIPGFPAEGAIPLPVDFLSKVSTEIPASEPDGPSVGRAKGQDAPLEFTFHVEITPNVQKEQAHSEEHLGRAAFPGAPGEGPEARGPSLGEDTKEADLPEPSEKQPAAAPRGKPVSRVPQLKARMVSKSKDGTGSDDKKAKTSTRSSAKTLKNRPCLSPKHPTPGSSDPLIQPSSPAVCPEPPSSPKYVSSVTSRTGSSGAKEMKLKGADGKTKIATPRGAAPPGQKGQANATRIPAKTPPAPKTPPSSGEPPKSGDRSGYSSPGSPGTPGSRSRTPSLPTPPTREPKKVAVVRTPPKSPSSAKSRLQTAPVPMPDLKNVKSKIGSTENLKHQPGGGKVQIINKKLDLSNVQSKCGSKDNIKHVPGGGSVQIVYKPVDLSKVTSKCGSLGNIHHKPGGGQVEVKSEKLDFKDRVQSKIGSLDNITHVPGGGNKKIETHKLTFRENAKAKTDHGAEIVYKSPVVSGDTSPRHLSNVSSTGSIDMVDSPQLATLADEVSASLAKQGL

With N#Cc1cccc(N2CN(CC(=O)NCC(F)(F)F)C(=O)C23CCN(C(=O)c2cnc4[nH]ncc4c2)CC3)c1 the IC50 was 16 µM (CYP2D6; enzyme activity, inhibitor).
C=C(NC(=O)c1csc(-c2nc3c(cc2O)-c2nc(cs2)C(=O)NC(C(C)O)C(=O)NC(=C(C)OC)c2nc(cs2)C(=O)NC2c4nc(cs4)C(=O)NC(COC(=O)c4c5c6c(cccc6n4O)COC(=O)C(OC4CC(C)(O)C(N(C)C)C(C)O4)C2OC5)c2nc-3cs2)n1)C(N)=O (stereo not shown) has a remaining activity of over 70% (CYP1A2; enzyme activity, inhibitor; up to 50 µM, pH 7.4).
Nc1nc(N)c2nsc([C@@H]3O[C@H](CO)[C@@H](O)[C@H]3O)c2n1 has a deamination half-life of 58.8 ± 0.4 s (Adenosine deaminase (ADA, Bos taurus, UniProt P56658); substrate, HPLC; bovine enzyme; 11.1 µM, pH 7.4, binary substrate mixture).
C=CC(=O)Nc1cc(Nc2nccc(-c3cn(C)c4ccccc34)n2)c(OCC(F)(F)F)nc1N(C)CCN(C)C — result for “contribution to metabolism”: 2.61% (CYP1A2; substrate, substrate depletion; 3 µM, 60 min, normalised to liver abundance).
[18F]c1ncccc1-c1ccc2c(n1)[nH]c1ccncc12 — result for “initial brain uptake”: about 2 SUV (Microtubule-associated protein tau (MAPT, Homo sapiens, UniProt P10636); PET imaging; healthy control subjects; intravenous, dose not given, first 5 min).
With O=C(CN1CN(c2cccc(F)c2)C2(CCN(C(=O)c3cnc4[nH]ncc4c3)CC2)C1=O)NCC(F)(F)F the IC50 was 13 µM (CYP2D6; enzyme activity, inhibitor).
Cc1nc2ccc(S(=O)(=O)n3nc(SCc4ccc(Cl)cc4)nc3N)cc2s1 gave an inhibition of 32% (CYP1A2; enzyme activity, inhibitor; human, liver microsomes; 10 µM).
The remaining activity of CNC(=O)C1CCCN(C(=O)C2CC3CCC2N3C(=O)[C@@H]2C[C@@H](O)CN2C(=O)NCc2cccc(Cl)c2F)C1 (mixture of isomers) is reported as 96.5% and 103% (Cytochrome P450 2C8 (CYP2C8, Homo sapiens, UniProt P10632); preincubation without NADPH; human; 0.0686 µM; reference: negative control).
With [2H]c1c(NS(C)(=O)=O)c([2H])c2c(C(=O)c3ccc(OCCCN(CCCC)CCCC)cc3)c(CCCC)oc2c1[2H] the kinact/KI was 133 M⁻¹ s⁻¹ (Cytochrome P450 2J2 (CYP2J2, Homo sapiens, UniProt P51589); inactivator; added: astemizole substrate).
Under “FRAP recovery half-time”, O=C(c1ccc(C(=O)N2CCC(N3CCCCC3)CC2)cc1)N1CCC(N2CCCCC2)CC1 is recorded as 8.2 s (Lethal(3)malignant brain tumor-like protein 3, MBT domains (Homo sapiens, UniProt Q96JM7); FRAP; human cells; 1 µM).

A few entries again:
With N#Cc1cccc(N2CN(CC(=O)NCC(F)(F)F)C(=O)C23CCN(C(=O)c2cnc4[nH]ncc4c2)CC3)c1 the IC50 was 16 µM (CYP2D6; enzyme activity, inhibitor).
